Measured values from different studies.
Protocols differ between the studies behind these lines. Values joined by “and” are separate records of one study, mostly repeats; a detail may differ. ± gives the spread as reported.
cyp121: Mycocyclosin synthase (cyp121, Mycobacterium tuberculosis, UniProt P9WPP7)
ADC-7 beta-lactamase: ADC-7 beta-lactamase (Acinetobacter baumannii, UniProt Q6DRA1)

Amino acid sequences for entries named in this document (tags omitted). Residues count along the entry.
UniProt P9WPP7, whole entry: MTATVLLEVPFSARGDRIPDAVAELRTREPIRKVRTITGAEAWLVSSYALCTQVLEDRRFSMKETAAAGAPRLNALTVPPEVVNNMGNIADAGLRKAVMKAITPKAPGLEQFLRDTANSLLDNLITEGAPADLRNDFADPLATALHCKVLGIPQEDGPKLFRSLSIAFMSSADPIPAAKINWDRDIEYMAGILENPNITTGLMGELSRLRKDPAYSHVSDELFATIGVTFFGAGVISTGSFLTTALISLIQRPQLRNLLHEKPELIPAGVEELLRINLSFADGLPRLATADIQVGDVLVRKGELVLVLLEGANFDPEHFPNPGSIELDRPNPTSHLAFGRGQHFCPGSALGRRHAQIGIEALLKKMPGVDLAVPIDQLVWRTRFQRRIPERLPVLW
UniProt P0C0H6, whole entry: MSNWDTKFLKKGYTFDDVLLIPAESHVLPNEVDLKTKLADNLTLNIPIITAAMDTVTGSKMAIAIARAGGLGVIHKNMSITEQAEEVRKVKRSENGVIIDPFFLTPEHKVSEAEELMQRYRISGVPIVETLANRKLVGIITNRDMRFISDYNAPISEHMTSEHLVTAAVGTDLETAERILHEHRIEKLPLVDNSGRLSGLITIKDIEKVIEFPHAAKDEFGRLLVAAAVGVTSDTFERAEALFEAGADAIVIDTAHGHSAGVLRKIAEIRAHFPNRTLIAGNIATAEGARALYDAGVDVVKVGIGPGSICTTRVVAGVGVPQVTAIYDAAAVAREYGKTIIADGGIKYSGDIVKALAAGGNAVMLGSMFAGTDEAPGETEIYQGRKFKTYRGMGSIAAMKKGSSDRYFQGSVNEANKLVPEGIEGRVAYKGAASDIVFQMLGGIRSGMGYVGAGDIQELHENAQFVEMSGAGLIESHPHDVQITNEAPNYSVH
UniProt P00533, 25-1210 limits assumed: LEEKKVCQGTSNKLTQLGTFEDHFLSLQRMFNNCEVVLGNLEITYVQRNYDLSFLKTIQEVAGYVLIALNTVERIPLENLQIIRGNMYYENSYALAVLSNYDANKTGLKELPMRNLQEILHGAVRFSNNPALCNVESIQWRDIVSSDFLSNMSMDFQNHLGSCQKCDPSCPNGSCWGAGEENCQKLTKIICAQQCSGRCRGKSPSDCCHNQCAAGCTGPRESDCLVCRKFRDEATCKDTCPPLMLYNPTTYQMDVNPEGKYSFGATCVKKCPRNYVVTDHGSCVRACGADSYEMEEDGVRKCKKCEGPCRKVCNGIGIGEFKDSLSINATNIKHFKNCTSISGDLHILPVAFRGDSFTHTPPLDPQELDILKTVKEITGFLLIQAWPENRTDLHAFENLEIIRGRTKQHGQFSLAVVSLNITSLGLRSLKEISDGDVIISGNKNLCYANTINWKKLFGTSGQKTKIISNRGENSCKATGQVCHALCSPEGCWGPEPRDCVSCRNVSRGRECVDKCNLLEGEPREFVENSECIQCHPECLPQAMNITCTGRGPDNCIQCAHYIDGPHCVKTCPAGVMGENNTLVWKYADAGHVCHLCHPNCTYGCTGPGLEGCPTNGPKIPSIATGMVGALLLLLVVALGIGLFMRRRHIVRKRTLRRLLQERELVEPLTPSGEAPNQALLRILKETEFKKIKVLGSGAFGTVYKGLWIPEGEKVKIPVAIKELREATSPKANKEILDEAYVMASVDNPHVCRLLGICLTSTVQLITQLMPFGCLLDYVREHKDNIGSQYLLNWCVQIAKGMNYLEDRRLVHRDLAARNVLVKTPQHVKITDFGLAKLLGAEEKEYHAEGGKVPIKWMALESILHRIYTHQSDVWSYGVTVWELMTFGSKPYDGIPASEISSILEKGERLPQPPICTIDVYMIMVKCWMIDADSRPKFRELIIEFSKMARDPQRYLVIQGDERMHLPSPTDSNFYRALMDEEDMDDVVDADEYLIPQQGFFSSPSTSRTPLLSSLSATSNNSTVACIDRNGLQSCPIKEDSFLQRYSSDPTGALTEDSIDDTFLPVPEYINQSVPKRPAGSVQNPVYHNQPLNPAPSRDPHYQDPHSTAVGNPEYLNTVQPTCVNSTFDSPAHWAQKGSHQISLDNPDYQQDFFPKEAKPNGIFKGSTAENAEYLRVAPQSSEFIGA
UniProt P09668, whole entry, looked up: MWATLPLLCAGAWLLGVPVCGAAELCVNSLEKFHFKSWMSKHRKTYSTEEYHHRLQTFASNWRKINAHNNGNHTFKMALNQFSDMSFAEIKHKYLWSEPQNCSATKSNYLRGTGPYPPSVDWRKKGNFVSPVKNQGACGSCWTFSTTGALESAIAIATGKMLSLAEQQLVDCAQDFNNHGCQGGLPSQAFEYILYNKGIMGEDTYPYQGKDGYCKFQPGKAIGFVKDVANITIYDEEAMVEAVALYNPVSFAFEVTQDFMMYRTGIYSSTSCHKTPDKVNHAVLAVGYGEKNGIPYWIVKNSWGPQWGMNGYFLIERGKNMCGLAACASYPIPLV
UniProt P04293, whole entry: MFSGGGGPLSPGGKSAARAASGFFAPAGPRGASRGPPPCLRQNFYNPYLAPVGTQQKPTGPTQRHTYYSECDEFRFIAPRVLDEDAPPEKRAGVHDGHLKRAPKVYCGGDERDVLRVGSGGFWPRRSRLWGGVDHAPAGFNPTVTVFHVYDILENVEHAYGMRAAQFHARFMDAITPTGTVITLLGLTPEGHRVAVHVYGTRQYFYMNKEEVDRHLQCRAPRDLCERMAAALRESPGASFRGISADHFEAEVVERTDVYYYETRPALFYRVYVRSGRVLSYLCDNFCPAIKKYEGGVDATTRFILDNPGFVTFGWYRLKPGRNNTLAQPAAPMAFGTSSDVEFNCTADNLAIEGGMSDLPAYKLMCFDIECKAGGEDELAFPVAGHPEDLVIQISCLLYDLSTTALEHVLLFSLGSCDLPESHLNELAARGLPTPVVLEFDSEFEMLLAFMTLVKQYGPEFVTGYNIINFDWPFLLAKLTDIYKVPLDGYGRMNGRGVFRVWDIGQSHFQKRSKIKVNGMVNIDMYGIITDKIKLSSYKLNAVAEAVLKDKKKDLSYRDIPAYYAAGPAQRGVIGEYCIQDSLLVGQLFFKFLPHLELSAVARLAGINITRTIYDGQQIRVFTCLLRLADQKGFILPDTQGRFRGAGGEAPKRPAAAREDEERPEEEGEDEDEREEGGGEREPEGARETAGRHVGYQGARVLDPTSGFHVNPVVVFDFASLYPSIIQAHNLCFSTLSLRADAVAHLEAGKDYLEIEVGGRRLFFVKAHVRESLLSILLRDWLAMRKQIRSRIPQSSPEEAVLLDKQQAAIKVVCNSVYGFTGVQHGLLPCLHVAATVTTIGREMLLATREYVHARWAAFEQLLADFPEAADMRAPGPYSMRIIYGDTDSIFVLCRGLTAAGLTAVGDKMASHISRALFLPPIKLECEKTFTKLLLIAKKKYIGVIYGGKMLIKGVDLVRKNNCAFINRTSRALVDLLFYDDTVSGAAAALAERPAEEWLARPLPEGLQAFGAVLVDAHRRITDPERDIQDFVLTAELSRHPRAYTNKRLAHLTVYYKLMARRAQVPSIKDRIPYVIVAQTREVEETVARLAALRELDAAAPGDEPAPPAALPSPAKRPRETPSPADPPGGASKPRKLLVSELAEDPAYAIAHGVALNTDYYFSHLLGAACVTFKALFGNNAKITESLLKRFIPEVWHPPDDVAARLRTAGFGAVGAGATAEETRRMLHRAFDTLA
UniProt P19784, whole entry: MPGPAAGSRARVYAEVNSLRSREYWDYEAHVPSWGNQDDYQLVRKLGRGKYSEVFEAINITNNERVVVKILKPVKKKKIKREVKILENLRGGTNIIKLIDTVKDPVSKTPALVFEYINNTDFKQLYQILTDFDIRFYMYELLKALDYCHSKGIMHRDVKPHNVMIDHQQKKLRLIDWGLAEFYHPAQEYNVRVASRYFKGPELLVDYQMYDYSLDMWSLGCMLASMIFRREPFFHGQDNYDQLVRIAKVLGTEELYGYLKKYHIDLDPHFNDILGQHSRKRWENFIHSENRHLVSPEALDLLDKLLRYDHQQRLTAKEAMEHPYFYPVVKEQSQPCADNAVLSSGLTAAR
UniProt P46925, 125-453 limits assumed: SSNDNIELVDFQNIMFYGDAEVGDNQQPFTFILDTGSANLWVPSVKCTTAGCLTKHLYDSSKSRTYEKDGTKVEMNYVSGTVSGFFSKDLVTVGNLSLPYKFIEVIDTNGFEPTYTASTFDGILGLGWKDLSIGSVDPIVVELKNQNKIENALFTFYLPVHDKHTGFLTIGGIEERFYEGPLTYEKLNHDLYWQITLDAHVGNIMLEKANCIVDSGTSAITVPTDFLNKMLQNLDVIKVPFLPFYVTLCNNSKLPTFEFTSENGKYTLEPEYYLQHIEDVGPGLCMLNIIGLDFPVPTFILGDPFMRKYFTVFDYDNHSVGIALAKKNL
UniProt Q8T6T2, whole entry: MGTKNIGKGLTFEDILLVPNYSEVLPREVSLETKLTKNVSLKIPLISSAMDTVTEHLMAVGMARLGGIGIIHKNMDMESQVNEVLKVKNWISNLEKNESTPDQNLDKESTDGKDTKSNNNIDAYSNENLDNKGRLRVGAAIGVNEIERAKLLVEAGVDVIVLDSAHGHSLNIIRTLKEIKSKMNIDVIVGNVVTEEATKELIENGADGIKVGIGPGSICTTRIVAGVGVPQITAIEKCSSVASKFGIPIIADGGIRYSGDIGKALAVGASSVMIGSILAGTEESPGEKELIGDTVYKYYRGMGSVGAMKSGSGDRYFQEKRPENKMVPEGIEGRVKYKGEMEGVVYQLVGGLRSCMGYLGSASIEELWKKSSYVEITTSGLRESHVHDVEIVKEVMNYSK
UniProt D0CA72, 1-326: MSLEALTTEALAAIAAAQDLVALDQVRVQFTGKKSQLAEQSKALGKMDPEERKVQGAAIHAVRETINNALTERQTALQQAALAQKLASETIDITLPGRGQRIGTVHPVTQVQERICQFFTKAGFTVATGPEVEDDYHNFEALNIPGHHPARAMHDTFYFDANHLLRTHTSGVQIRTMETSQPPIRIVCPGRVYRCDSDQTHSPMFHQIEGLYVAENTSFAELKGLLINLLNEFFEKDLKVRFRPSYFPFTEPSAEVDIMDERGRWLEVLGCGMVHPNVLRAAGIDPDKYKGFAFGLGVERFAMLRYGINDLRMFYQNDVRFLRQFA
UniProt O00519, whole entry: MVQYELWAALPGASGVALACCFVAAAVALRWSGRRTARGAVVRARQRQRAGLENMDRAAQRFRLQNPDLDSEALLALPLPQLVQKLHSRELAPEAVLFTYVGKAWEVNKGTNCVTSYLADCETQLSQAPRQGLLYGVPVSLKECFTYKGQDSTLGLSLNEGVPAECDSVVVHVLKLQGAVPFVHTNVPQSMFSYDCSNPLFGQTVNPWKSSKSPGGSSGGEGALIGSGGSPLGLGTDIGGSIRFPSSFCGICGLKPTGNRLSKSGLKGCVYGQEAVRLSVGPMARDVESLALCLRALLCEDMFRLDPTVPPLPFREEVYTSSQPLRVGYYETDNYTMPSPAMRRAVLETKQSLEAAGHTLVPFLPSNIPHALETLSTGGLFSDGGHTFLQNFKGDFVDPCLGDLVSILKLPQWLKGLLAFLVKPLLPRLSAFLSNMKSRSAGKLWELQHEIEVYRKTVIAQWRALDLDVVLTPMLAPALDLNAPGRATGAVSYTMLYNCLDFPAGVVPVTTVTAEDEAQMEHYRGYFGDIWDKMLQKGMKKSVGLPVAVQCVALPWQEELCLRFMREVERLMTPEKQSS
UniProt P06802, 92-905 isoform 2 limits assumed: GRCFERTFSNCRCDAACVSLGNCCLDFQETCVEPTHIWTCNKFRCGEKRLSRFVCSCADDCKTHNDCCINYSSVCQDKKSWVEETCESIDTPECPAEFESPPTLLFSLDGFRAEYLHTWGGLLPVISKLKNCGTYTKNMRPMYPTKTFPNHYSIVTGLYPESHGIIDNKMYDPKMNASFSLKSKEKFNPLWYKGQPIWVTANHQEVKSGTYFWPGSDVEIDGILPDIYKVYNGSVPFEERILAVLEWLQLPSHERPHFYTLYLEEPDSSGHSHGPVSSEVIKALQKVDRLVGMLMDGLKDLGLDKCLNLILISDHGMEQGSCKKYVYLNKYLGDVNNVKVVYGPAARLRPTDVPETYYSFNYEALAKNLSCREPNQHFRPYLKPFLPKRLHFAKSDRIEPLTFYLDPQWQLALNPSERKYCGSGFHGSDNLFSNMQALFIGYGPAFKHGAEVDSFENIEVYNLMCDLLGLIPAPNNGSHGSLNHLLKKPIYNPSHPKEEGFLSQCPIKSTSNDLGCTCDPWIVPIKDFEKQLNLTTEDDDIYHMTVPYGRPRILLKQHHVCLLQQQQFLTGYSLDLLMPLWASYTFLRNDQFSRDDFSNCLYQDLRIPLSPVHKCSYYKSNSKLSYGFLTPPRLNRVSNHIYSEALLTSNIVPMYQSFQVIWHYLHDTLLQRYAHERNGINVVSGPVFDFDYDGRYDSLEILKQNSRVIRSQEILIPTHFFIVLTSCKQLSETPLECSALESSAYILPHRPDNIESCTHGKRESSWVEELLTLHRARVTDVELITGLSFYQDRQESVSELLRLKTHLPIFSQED

| SMILES | target | assay | test system | setting | quantity | value |
| --- | --- | --- | --- | --- | --- | --- |
| CC(c1ccc2c(c1)Cc1cc(F)ccc1-2)n1ccnc1 (stereo not shown) | cyp121 | binding |  |  | Kd | 17000 ± 2000 nM |
| CC(Oc1ccccc1)C(=O)Nc1ccc(Cl)cc1 (stereo not shown) | Inosine-5'-monophosphate dehydrogenase (Streptococcus pyogenes, UniProt P0C0H6) | enzyme activity, inhibitor |  | corrected for open conformation | IC50 | 12000 nM |
| C=CC(=O)Nc1cc(-n2c(=O)ccc3cnc4ccc(-c5cn[nH]c5)cc4c32)ccc1C | Epidermal growth factor receptor (EGFR, Homo sapiens, UniProt P00533) | kinase activity, inhibitor |  |  | IC50 | 597 nM |
| CC(C)CC(NC(=O)C1OC1C(=O)O)C(=O)NCCCCN=C(N)N (stereo not shown) | Pro-cathepsin H (Homo sapiens, UniProt P09668) | enzyme activity, inhibitor |  |  | IC50 | 33.7 nM |
| CC(=O)Nc1ncc(CN2CC[C@H](Oc3cccc(F)n3)C[C@@H]2C)s1 [isotope labelled] | Protein O-GlcNAcase (Rattus norvegicus, UniProt Q8VIJ5) | saturation binding | rat striatum homogenate | radiolabelled compound | Kd | 3.3 ± 2.9 nM |
| Nc1nc2c(ncn2[C@@H]2CC[C@H](OC(C(=O)O)P(=O)(O)O)C2)c(=O)[nH]1 (relative stereo) | DNA polymerase catalytic subunit (Herpes simplex virus, UniProt P04293) | mixed inhibitor, mixed model fit |  | calf thymus DNA template, added: varying dGTP | Ki | 2210 nM |
| Cc1ccc(N(C)c2cc(N(C)C3CC3)n3ncc(C#N)c3n2)cc1NC(=O)C1CC1 | Casein kinase II subunit alpha' (CSNK2A2, Homo sapiens, UniProt P19784) | target engagement, NanoBRET | HEK293 |  | IC50 | > 10000 nM |
| CC(C)(NC(=O)Nc1ccc(Cl)c(-c2nc(C(F)(F)F)cs2)c1)c1cccc(C(N)=NO)c1 | IMPDH 2, Staphylococcus aureus | inhibitor |  | added: 500 µM NAD+, 1.0 mM IMP | Ki | 4.8 ± 1.5 nM |
| Oc1ccc(-c2ccc(Cn3ccnc3)cc2)cc1 | cyp121 | binding |  |  | Kd | 7400 ± 2300 nM |
| CSC[C@H](NC(=O)Cc1ccc(N)cc1)C(=O)N[C@@H](Cc1ccccc1)[C@H](O)C(=O)N1CSC(C)(C)[C@H]1C(=O)N[C@H]1c2ccccc2C[C@H]1O | Plasmepsin II (Plasmodium falciparum, UniProt P46925) | inhibitor, fluorogenic substrate |  | pH 5.0, 25 °C, mature enzyme | Ki | 1.3 nM |
| COc1c(C)c2c(c(O)c1CCC(C)CCC(=O)Nc1ccc(Cl)c(C(F)(F)F)c1)C(=O)OC2 (stereo not shown) | Inosine-5'-monophosphate dehydrogenase (Cryptosporidium parvum, UniProt Q8T6T2) | inhibitor |  | pH 8.0, 25 °C, added: NAD 300 µM, IMP 250 µM | Ki | 60 nM |
| C1=C(CCNCc2ccccc2)CCCC1 | pheS, with PheT subunit (Acinetobacter baumannii, UniProt D0CA72) | phenylalanine activation, inhibitor |  |  | IC50 | 20 µg/mL |
| [2H]C1(C(=O)Nc2ccc3cc(C(=O)O)ccc3c2)CCN(S(=O)(=O)c2ccc(C)cc2C)CC1 | Fatty-acid amide hydrolase 1 (FAAH, Homo sapiens, UniProt O00519) |  |  | pH 8, 37 °C, added: OMP substrate 50 µM | IC50 | 20000 nM |
| CCN1CCN(C(=O)N[C@@H](C(=O)NCB2OC(C)(C)C(C)(C)O2)c2ccc(O)cc2)C(=O)C1=O | ADC-7 beta-lactamase | inhibitor |  | pH 7.4, room temperature, added: nitrocefin substrate | Ki | ≤ 1000 nM and 600 nM |
| COc1cccc2c(N3CCC(CCP(=O)(O)O)CC3)ncnc12 | Ectonucleotide pyrophosphatase/phosphodiesterase family member 1 (Enpp1, Mus musculus, UniProt P06802) | enzyme activity, inhibitor, coupled luciferase AMP detection |  | pH 7.4, added: cGAMP 5 µM | Ki | < 2 nM |
| O=C(Cc1cccs1)N[C@@H](Cn1cc(C(=O)NO)nn1)B(O)O | ADC-7 beta-lactamase | enzyme activity, inhibitor |  | 5 min preincubation, pH 7.4, room temperature, added: nitrocefin | Ki | 155 ± 3 nM |

For quick reference, copied from above:
| SMILES | target | assay | test system | setting | quantity | value |
| --- | --- | --- | --- | --- | --- | --- |
| CC(C)(NC(=O)Nc1ccc(Cl)c(-c2nc(C(F)(F)F)cs2)c1)c1cccc(C(N)=NO)c1 | IMPDH 2, Staphylococcus aureus | inhibitor |  | added: 500 µM NAD+, 1.0 mM IMP | Ki | 4.8 ± 1.5 nM |
